Assay results from different studies.
Compare with care: the assays were run in different laboratories.
Effect on: microbial growth

Compound	organism	assay	test system	setting	MIC
C#CCNC(=O)c1c(-c2ccc(OC)cc2)oc2ccc(O)c(CN3CCCCC3)c12	Mycolicibacterium smegmatis	–	MC2155	72 h	12 µM
COC(=O)c1cc(-c2cccc(NC(=S)Nc3ccccc3)c2)on1	Mycobacteroides abscessus	broth dilution	ATCC19977	48 h	> 64 µg/mL
CCOC(=O)c1c(-c2ccc(OC)cc2)oc2ccc(O)c(CN3CCN(Cc4cn(C[C@H]5O[C@H](O[C@H]6O[C@H](CO)[C@@H](O)[C@H](O)[C@H]6O)[C@H](O)[C@@H](O)[C@@H]5O)nn4)CC3)c12	Mycolicibacterium smegmatis	–	MC2155	72 h	98 µM
COC(=O)c1cc(-c2cccc(NC(=S)Nc3cccc(Br)c3)c2)on1	Mycobacteroides abscessus	broth dilution	ATCC19977	48 h	> 64 µg/mL
O=c1ccc2nc3ccc(O)cc3oc-2c1	Enterobacter cloacae	–	–	24 h	> 32 µg/mL
Oc1c(Cl)cc(Cl)cc1-c1[nH]c(Cl)c(Cl)c1Cl	Enterococcus faecalis	–	ATCC29212	–	32 µM
N#Cc1ccc(/C=C/c2nc3ccccc3c(=O)n2-c2cccc(F)c2)cc1	Enterococcus faecium	broth dilution	NCTC7171	–	> 128 µg/mL
COC(=O)c1cc(-c2cccc(NC(=O)Nc3cccc(C(F)(F)F)c3)c2)on1	Mycobacteroides abscessus	broth dilution	ATCC19977	48 h	> 64 µg/mL
O=c1ccc2nc3ccc(OCc4ccc([N+](=O)[O-])o4)cc3oc-2c1	Escherichia coli	–	–	24 h	> 32 µg/mL
COC(=O)c1cc(-c2cccc(NC(=O)Nc3ccc(OC)cc3)c2)on1	Mycobacteroides abscessus	broth dilution	ATCC19977	48 h	> 64 µg/mL
Oc1c(Br)cc(Br)cc1-c1[nH]c(Br)c(Br)c1Br	Salmonella enterica	–	ATCC13311	–	16 µM
COc1ccc(-c2oc3ccc(O)c(CN4CCCCC4)c3c2C(=O)NCc2cn(C[C@H]3O[C@H](O[C@H]4O[C@H](CO)[C@@H](O)[C@H](O)[C@H]4O)[C@H](O)[C@@H](O)[C@@H]3O)nn2)cc1	Mycolicibacterium smegmatis	–	MC2155	72 h	12.6 µM
CCc1ccc(/C=C/c2nc3ccccc3c(=O)n2-c2cccc(O)c2)cc1	Enterococcus faecium	broth dilution	NCTC7171	–	> 128 µg/mL
COC(=O)c1cc(-c2cccc(NC(=O)Nc3ccc(C)cc3)c2)on1	Mycobacteroides abscessus	broth dilution	ATCC19977	48 h	> 64 µg/mL
C[C@H]1COc2c(N3CCN(C)CC3)c(F)cc3c(=O)c(C(=O)O)cn1c23	Acinetobacter baumannii	–	NCTC13304	drug-resistant strain	8 µg/mL
O=c1c2ccccc2nc(/C=C/c2ccncc2)n1-c1cccc(O)c1	Enterococcus faecium	broth dilution	NCTC7171	–	128 µg/mL

Repeated from above:
Compound	organism	assay	test system	setting	MIC
COC(=O)c1cc(-c2cccc(NC(=S)Nc3ccccc3)c2)on1	Mycobacteroides abscessus	broth dilution	ATCC19977	48 h	> 64 µg/mL
COc1ccc(-c2oc3ccc(O)c(CN4CCCCC4)c3c2C(=O)NCc2cn(C[C@H]3O[C@H](O[C@H]4O[C@H](CO)[C@@H](O)[C@H](O)[C@H]4O)[C@H](O)[C@@H](O)[C@@H]3O)nn2)cc1	Mycolicibacterium smegmatis	–	MC2155	72 h	12.6 µM
